Results from different studies.
Protocols differ between the studies behind these lines.
Organism: Klebsiella pneumoniae

SMILES | assay | test system | conditions | MIC
CCOC(=O)c1ccc2c(c1)n(CC)[c]([Au-][Cl])[n+]2CC | broth dilution | DSM 11678 | 20 h, 37 °C | 66.8 µM
Oc1ccc(Cl)cc1-c1nc2cc(C(F)(F)F)ccc2[nH]1 | – | B9 | – | 25 µM
CC[C@H](C)[C@@H]1NC(=O)[C@@H]2CSSC[C@@H]3NC(=O)[C@H](C(C)C)NC(=O)CNC(=O)CNC(=O)[C@H](CCCNC(=N)N)NC(=O)[C@H](CCCNC(=N)N)NC(=O)CNC(=O)[C@H](C(C)C)NC(=O)[C@@H]4CSSC[C@H](NC(=O)[C@H](CC(C)C)NC(=O)[C@H](CCCNC(=N)N)NC(=O)CNC(=O)CNC(=O)[C@H](CO)NC(=O)CNC(=O)[C@H](CO)NC(=O)CNC(=O)[C@@H]5CSSC[C@H](NC(=O)[C@H](CC(=O)O)NC(=O)[C@H](CO)NC(=O)[C@H](CC(=O)O)NC(=O)[C@H](CCCNC(=N)N)NC(=O)[C@H](CCCNC(=N)N)NC(=O)[C@H](CSSC[C@H](NC1=O)C(=O)N[C@@H](CCCNC(=N)N)C(=O)NCC(=O)N[C@@H](CC(N)=O)C(=O)NCC(=O)N[C@@H](Cc1ccc(O)cc1)C(=O)N5)NC(=O)[C@H](CCCNC(=N)N)NC(=O)[C@H](CCC(N)=O)NC(=O)[C@H](CC(C)C)NC(=O)[C@H]([C@@H](C)CC)NC(=O)[C@H](CCCCN)NC(=O)[C@@H]1CCCN1C3=O)C(=O)N1CCC[C@H]1C(=O)NCC(=O)N[C@@H](C)C(=O)N2)C(=O)N[C@@H](Cc1ccc(O)cc1)C(=O)N[C@H]1CSSC[C@H](NC(=O)[C@H](Cc2ccccc2)NC(=O)[C@H](CCCNC(=N)N)NC(=O)[C@H](CCCNC(=N)N)NC(=O)[C@H](CCCNC(=N)N)NC1=O)C(=O)N[C@@H](C(C)C)C(=O)N4 | – | K6, CAMHB | – | 12.5 µM
CC[P+](CC)(CC)[Au-][S][C@@H]1O[C@H](COC(C)=O)[C@@H](O[C@H]2O[C@H](COC(C)=O)[C@@H](OC(C)=O)[C@H](OC(C)=O)[C@H]2OC(C)=O)[C@H](OC(C)=O)[C@H]1OC(C)=O | – | ATCC 700603 | – | > 265 µM
CC(C)C[C@H](NC(=O)[C@H](CC(N)=O)NC(=O)[C@H](CCCNC(=N)N)NC(=O)[C@@H](CC(C)C)NC(=O)[C@H](Cc1ccc(-c2ccccc2)cc1)NC(=O)[C@H](CC(=O)O)NC(=O)[C@H](CCCCN)NC(=O)[C@@H](CC(C)C)NC(=O)[C@H](CCCNC(=N)N)NC(=O)[C@H](CCC(N)=O)NC(=O)[C@@H](NC(=O)[C@@H](CC(C)C)NC(=O)[C@H](CCCNC(=N)N)NC(=O)[C@H](CCCCN)NC(=O)[C@H](Cc1ccc(-c2ccccc2)cc1)NC(=O)CN)C(C)C)C(=O)N[C@H](C(N)=O)C(C)C | broth microdilution | ATCC 13883 | – | 3.1 µM
CC(=O)N1CCc2cc(S(=O)(=O)N3CCN(c4cc(C(F)(F)F)ccn4)CC3)ccc21 | microbial growth, broth dilution | 10031 | 22 h | 0.25 µg/mL
CCCCCCCCCC(=O)NCCCC[C@H](NC(=O)[C@H](CC(C)C)NC(=O)[C@H](CCCCN)NC(=O)[C@H](CCCCNC(=O)[C@H](CC(C)C)NC(=O)[C@H](CCN)NC(=O)[C@H](CCCCNC(=O)[C@H](Cc1ccccc1)NC(=O)[C@@H](N)CCCN)NC(=O)[C@H](Cc1ccccc1)NC(=O)[C@@H](N)CCCN)NC(=O)[C@H](CC(C)C)NC(=O)[C@H](CCN)NC(=O)[C@H](CCCCNC(=O)[C@H](Cc1ccccc1)NC(=O)[C@@H](N)CCCN)NC(=O)[C@H](Cc1ccccc1)NC(=O)[C@@H](N)CCCN)C(N)=O | broth microdilution | NCTC 418 | 37 °C | > 64 µg/mL
CCCCCCCCCCCCCCCc1cc(O)cc(O)c1 | microbial growth, broth dilution | ATCC10031 | – | > 64 µg/mL
CCn1cc[n+](CC)[c]1[Au-]([Cl])([Cl])[Cl] | broth dilution | DSM 11678 | 20 h, 37 °C | 18.7 µM
CN1CCC(NCCC2(Cc3ccc(Cl)cc3)CCCCC2)CC1 | microbial growth | – | 10 h | 200 µM
CC(C)CS[C@H]1[C@H](O)[C@@H](N)[C@@H](O[C@H]2[C@H](O[C@@H]3O[C@H](CO)[C@@H](O[C@H]4O[C@@H](CN)[C@@H](O)[C@H](O)[C@H]4N)[C@H]3O)[C@@H](O)[C@H](N)C[C@@H]2N)O[C@@H]1CO | – | AG215 | – | 4 µg/mL
Oc1c(Cl)cc(Cl)c2cccnc12 | microbial growth, agar dilution | ATCC700603 | – | 1200 µM
c1ccc(CN2CCOCCOCCN(CCCCCCCCCCN3CCOCCOCCN(CCCCCCCCCCN4CCOCCOCCN(Cc5ccccc5)CCOCCOCC4)CCOCCOCC3)CCOCCOCC2)cc1 | – | ESBL, fluoroquinolone-resistant | – | 26 µM
CC(C)CCCCC(=O)N[C@@H](CCN)C(=O)N[C@H](C(=O)N[C@@H](CCN)C(=O)N[C@H]1CCNC(=O)[C@H]([C@@H](C)O)NC(=O)[C@H](CCN)NC(=O)[C@H](CCN)NC(=O)[C@H](CC(C)C)NC(=O)[C@@H](Cc2ccccc2)NC(=O)[C@H](CCN)NC1=O)[C@@H](C)O | broth microdilution | NCTC 418 | 37 °C | 0.5 µg/mL
CC(C)C[C@@H]1NC(=O)[C@@H](CC(C)C)NC(=O)[C@H](CCN)NC(=O)[C@@H](NC(=O)[C@H](CCN)NC(=O)[C@@H](N)[C@@H](C)O)CCNC(=O)[C@H]([C@@H](C)O)NC(=O)[C@H](CCN)NC(=O)[C@H](CCN)NC1=O | broth microdilution | ATCC 11228, CAMHB with polysorbate-80 | 16 h | > 64 µg/mL
Oc1ccc(C(F)(F)F)cc1-c1nc2c(Cl)cc(Cl)cc2[nH]1 | – | B9 | – | 25 µM
CC(C)S[C@H]1[C@H](O)[C@@H](N)[C@@H](O[C@H]2[C@H](O[C@@H]3O[C@H](CO)[C@@H](O[C@H]4O[C@@H](CN)[C@@H](O)[C@H](O)[C@H]4N)[C@H]3O)[C@@H](O)[C@H](N)C[C@@H]2N)O[C@@H]1CO | – | AG215 | – | 8 µg/mL
CC(=O)N1CCc2cc(S(=O)(=O)N3CCN(c4nc(C(F)(F)F)cs4)CC3)ccc21 | microbial growth, broth dilution | 10031 | 22 h | 10.1 µg/mL
CC(C)C[C@H](NC(=O)[C@H](CC(N)=O)NC(=O)[C@H](CCCNC(=N)N)NC(=O)[C@@H](CC(C)C)NC(=O)[C@H](Cc1ccc2ccccc2c1)NC(=O)[C@H](CC(=O)O)NC(=O)[C@H](CCCCN)NC(=O)[C@@H](CC(C)C)NC(=O)[C@H](CCCNC(=N)N)NC(=O)[C@H](CCC(N)=O)NC(=O)[C@@H](NC(=O)[C@@H](CC(C)C)NC(=O)[C@H](CCCNC(=N)N)NC(=O)[C@H](CCCCN)NC(=O)[C@H](Cc1ccccc1)NC(=O)CN)C(C)C)C(=O)N[C@H](C(N)=O)C(C)C | broth microdilution | ATCC 13883 | – | 25 µM
CC[P+](CC)(CC)[Au-][S][C@@H]1O[C@H](COC(C)=O)[C@H](OC(C)=O)[C@H](OC(C)=O)[C@H]1OC(C)=O | – | ATCC 700603 | – | > 377 µM
CC[C@H](C)CCCCC(=O)N[C@@H](CCN)C(=O)N[C@H](C(=O)N[C@H](CO)C(=O)N[C@H]1CCNC(=O)[C@H](CC(C)C)NC(=O)[C@H](CCN)NC(=O)[C@H](CCN)NC(=O)[C@H]([C@@H](C)CC)NC(=O)[C@@H](CC(C)C)NC(=O)[C@H](CCN)NC1=O)[C@@H](C)O | – | ATCC 13883 | – | 1 µg/mL

Excerpt of the above:
SMILES | assay | test system | conditions | MIC
CC[C@H](C)[C@@H]1NC(=O)[C@@H]2CSSC[C@@H]3NC(=O)[C@H](C(C)C)NC(=O)CNC(=O)CNC(=O)[C@H](CCCNC(=N)N)NC(=O)[C@H](CCCNC(=N)N)NC(=O)CNC(=O)[C@H](C(C)C)NC(=O)[C@@H]4CSSC[C@H](NC(=O)[C@H](CC(C)C)NC(=O)[C@H](CCCNC(=N)N)NC(=O)CNC(=O)CNC(=O)[C@H](CO)NC(=O)CNC(=O)[C@H](CO)NC(=O)CNC(=O)[C@@H]5CSSC[C@H](NC(=O)[C@H](CC(=O)O)NC(=O)[C@H](CO)NC(=O)[C@H](CC(=O)O)NC(=O)[C@H](CCCNC(=N)N)NC(=O)[C@H](CCCNC(=N)N)NC(=O)[C@H](CSSC[C@H](NC1=O)C(=O)N[C@@H](CCCNC(=N)N)C(=O)NCC(=O)N[C@@H](CC(N)=O)C(=O)NCC(=O)N[C@@H](Cc1ccc(O)cc1)C(=O)N5)NC(=O)[C@H](CCCNC(=N)N)NC(=O)[C@H](CCC(N)=O)NC(=O)[C@H](CC(C)C)NC(=O)[C@H]([C@@H](C)CC)NC(=O)[C@H](CCCCN)NC(=O)[C@@H]1CCCN1C3=O)C(=O)N1CCC[C@H]1C(=O)NCC(=O)N[C@@H](C)C(=O)N2)C(=O)N[C@@H](Cc1ccc(O)cc1)C(=O)N[C@H]1CSSC[C@H](NC(=O)[C@H](Cc2ccccc2)NC(=O)[C@H](CCCNC(=N)N)NC(=O)[C@H](CCCNC(=N)N)NC(=O)[C@H](CCCNC(=N)N)NC1=O)C(=O)N[C@@H](C(C)C)C(=O)N4 | – | K6, CAMHB | – | 12.5 µM
CC[P+](CC)(CC)[Au-][S][C@@H]1O[C@H](COC(C)=O)[C@@H](O[C@H]2O[C@H](COC(C)=O)[C@@H](OC(C)=O)[C@H](OC(C)=O)[C@H]2OC(C)=O)[C@H](OC(C)=O)[C@H]1OC(C)=O | – | ATCC 700603 | – | > 265 µM
